Results from different studies.
Lines come from different studies, so protocols differ. Several values in a cell are separate wells, animals, samples, runs or records. ± gives the spread as reported.

Structure (SMILES) | cell line | test | system | conditions | scale | endpoint | value
CC(C)NCC(O)c1ccc(O)c(O)c1 (stereo not drawn) | mouse ventricular cardiomyocytes | – | – | dose not given, 0.136 s | – | sarcomere length | 1.6 µm
COc1cc(/C=C/C(=O)N2CCC=CC2=O)cc(OC)c1OC | MDA-MB-468 | quantitative RT-PCR, item: NFE2L1 | – | 30 µM, 8 h | relative to: untreated cells | mRNA level | 53.4 ± 0.8%
CCCCc1oc2ccc(NS(C)(=O)=O)cc2c1C(=O)c1ccc(OCCCN(CCCC)CCCC)cc1 | human embryonic stem cell aggregates | mRNA level, microarray, item: FGD4 | – | 0.5 µM, 120 h | relative to: untreated, up-regulated | fold change | 1.8 fold
CCCCc1nc(Cl)c(CO)n1Cc1ccc(-c2ccccc2-c2nn[nH]n2)cc1 | human PBMC | RNA-seq, item: TNIP3 mRNA | – | 10 µg/mL, 24 h | relative to: untreated control | log2 fold change | 1.94
CC[C@H](C)C(=O)O[C@H]1C[C@H](O)C=C2C=C[C@H](C)[C@H](CC[C@@H](O)C[C@@H](O)CC(=O)O)[C@H]21 | COS-7 | WST-8 | – | 10 µM, 24 h, 0.1% DMSO, unit not given | relative to: vehicle control | metabolic activity | 0.99 ± 0.03
CC(C)[C@H](C(=O)Nc1ccc(C(=O)NO)cc1)c1ccccc1 | OCI-Ly1 | – | – | 1 µM, 120 h | – | viability | 8.6%
Cc1nc2cc(C(=O)c3ccc(F)cc3)ccc2[nH]1 | sample A patient iPSC-derived NPCs | MTS | – | 10 µM, 24 h | relative to: vehicle | viability | 110 ± 5.64%
C[C@H](CCC(=O)NCCS(=O)(=O)O)[C@H]1CC[C@H]2[C@@H]3CC[C@@H]4C[C@H](O)CC[C@]4(C)[C@H]3CC[C@]12C | rat PCK cystic cholangiocytes | cell counting | – | 20 µM, 24 h | relative to: untreated | proliferation increase | 55%
O=C(C[C@@H](C(F)F)n1ccc(F)n1)N1CCC(O)(Cn2cnc3c(cnn3-c3ccc(F)cc3)c2=O)CC1 | CHP-212 resistant | annexin V/PI flow cytometry | – | 0.1 µM, 48 h | – | apoptotic cells | 12.7%
Cn1cc(-c2ccc(-c3cncc(Cl)c3N3CCC4(CCNC4=O)CC3)cc2)cn1 | COLO 205 | gene expression, microarray, item: DDR1 mRNA | – | concentration not given, 2 h | relative to: untreated cells | log2 fold change | 2.23
O=C(O)CCNc1cc(N2CCc3ccccc3CC2)nc(-c2cccnc2)n1 | OCI-Ly1 | – | – | 1 µM, 120 h | – | viability | 111%
COc1cc(NC(C)CCCN)c2ncccc2c1 (stereo not drawn) | iPSC-derived cardiomyocytes | concentration-response fit | – | – | relative to: vehicle | fitted bottom MyBP-C/MYH ratio | 0%
CC(C)C[C@H](NP(=O)(O)O[C@@H]1O[C@@H](C)[C@H](O)[C@@H](O)[C@H]1O)C(=O)N[C@@H](Cc1c[nH]c2ccccc12)C(=O)O | SH-SY5Y BACE1-overexpressing | ELISA | supernatant | 10 µM, 72 h | relative to: vehicle | Aβ40 level | ~26%
CNc1nc2c(c(N3CC(=O)Nc4cc(OC)ccc43)n1)CCC2 | HCI-10-Luc2 | chemotaxis | – | with: human HGF 50 nM | – | lowest effective concentration | ≥ 1 nM
CC[C@H](C)n1cc(C)c2c(C(=O)NCc3c(C)cc(C)[nH]c3=O)cc(-c3ccc(N4CCNCC4)nc3)cc21 | OCI-Ly1 | – | – | 0.5 µM, 120 h | – | viability | 152%
O=C(COc1ccc(Cl)cc1)NC12CC(c3nnc([C@H]4C[C@@H](OC(F)(F)F)C4)o3)(C1)C2 | HEK293 expressing (G4C2)71-GFP | electrochemiluminescence | – | 1 µM, 2.5 h, C9orf72 repeat expansion | – | ATF4 protein level | decreased
CC/C(=N\NC(=O)NCc1cccc(O)c1)c1ccc(O)c(C)c1O | SK-OV-3 | Western blot, item: LATS | – | 1 µM, 1 h, 3D culture in gellan gum, unit not given | relative to: β-actin | protein level | 0.91 ± 0.58
FC(F)(F)Oc1ccc(CNc2ccc3nc(S)[nH]c3c2)cc1 | sample A patient iPSC-derived NPCs | MTS | – | 10 µM, 24 h | relative to: vehicle | viability | 95.98 ± 0.95%
O=C(Nc1nnc2n3c(Cc4ccccc4)n[nH]c3nc(-c3ccc(Cl)cc3)c1-2)c1ccccc1 | A498 | SRB | – | 10 µM, NCI60 single-dose screen | relative to: untreated | cell growth | 110%
Cn1c(Nc2nc3ccc(C(F)(F)F)cc3s2)nc2cc(C(=O)NCCOCCO)ccc21 | SH-SY5Y | RNA-seq, item: FAM83G mRNA | – | 5 µM, 5 h | relative to: untreated cells | fold change | 2.81
CN1C(C(=O)Nc2ccccn2)=C(O)c2sc(Cl)cc2S1(=O)=O | COS-7 | – | – | 30 µM, 24 h, 0.1% DMSO, unit not given | relative to: vehicle control | confluence | 0.97 ± 0.02
Cc1cc(Nc2ncc(Cl)c(Nc3ccccc3S(=O)(=O)C(C)C)n2)c(OC(C)C)cc1C1CCNCC1 | CLB-BAR | phosphoproteomics LC-MS/MS, item: SOS1 phosphorylation | – | 200 nM, 60 min | relative to: untreated | log2 fold change | -3.08
Nc1ncnc2c1ncn2[C@@H]1O[C@H](CO)[C@@H](O)[C@H]1O | activated human T cells | – | – | 100 nM | higher = more proliferation | T cell proliferation | 68.7 a.u. and 62.8 a.u. and 63.6 a.u.

Structure (SMILES) | cell line | test | system | conditions | scale | endpoint | value
N#C/C(=C\c1ccc(-c2cc(Cl)ccc2Cl)o1)C(=O)Nc1cccc2ncccc12 | OCI-Ly1 | – | – | 0.5 µM, 120 h | – | viability | 96.3%
COC(=O)[C@]12CCC(C)(C)C[C@H]1[C@H]1C(=O)C=C3[C@@]4(C)C=C(C#N)C(=O)C(C)(C)[C@@H]4CC[C@@]3(C)[C@]1(C)CC2 | HepG2 | item: phospholipidosis | – | 24 h, distribution mode 1 | – | point of departure | 0.000851 µM
CCn1cc(-c2cc(Cn3ccoc3=N)cc3c2CCN([C@@H](C)c2cc(OC)ccn2)C3=O)c(C(F)(F)F)n1 | OVSAHO | cell growth, inhibitor | – | 120 h | – | EC50 | 5.97 µM
C=C1C(=O)O[C@@H]2C[C@@]3(C)CCC[C@H](C)C3=C[C@H]12 | iPSC-derived cardiomyocytes | concentration-response fit | – | concentration not given | relative to: vehicle | fitted top MyBP-C level | 89%
COc1cc(N2CCC(N3CCN(C)CC3)CC2)ccc1Nc1ncc(Cl)c(Nc2ccccc2P(C)(C)=O)n1 | Ba/F3 EML4-ALK v3, no mutation | cell viability | – | – | – | Emax | 98.8%
CCn1cc(-c2cc(Cn3ccnc3)cc3c2CCN([C@H](c2cc(OC)ccn2)C2CC2)C3=O)c(C(F)(F)F)n1 | MV4-11 | cell growth, inhibitor | – | 120 h | – | EC50 | 0.0326 µM
Nc1ncnc2c1ncn2[C@@H]1O[C@H](COP(=O)(O)OP(=O)(O)OP(=O)(O)O)[C@@H](O)[C@H]1O | PMA-differentiated Pam3CSK4-primed THP-1 CASP1 knockout | inducer, ELISA | – | concentration not given | – | IL-1beta release | 20.5 pg/mL and 21.4 pg/mL and 25.3 pg/mL
Cn1cc(Nc2nccc(-c3ccc4c(c3)CN(C3COC3)CC[C@H]4NC(=O)c3cn(C(C)(C)C)nn3)n2)cn1 | mouse splenic B cells | item: Gαs signalling | – | 30 mg/kg, IgD-activated in vivo | relative to: vehicle, direction not given | pathway activation z-score | 2.89
CCc1cc2c(N3CCN(c4nncs4)CC3)ncnc2s1 | OCI-Ly1 | – | – | 0.1 µM, 120 h | – | viability | 103%
O=C1N(Cc2ccccc2Cl)c2ccccc2C12NN=C(c1ccccc1)S2 (stereo not drawn) | NSCLC and TNBC cells | Western blot, item: cyclin B1 | – | concentration not given | – | protein level | decreased
COc1ccc(NC(=S)N/N=C/c2cccc3cc4ccccc4nc23)cc1 | HeLa | PI flow cytometry | – | IC12.5, 48 h, with: N-acetylcysteine | – | S phase cells | 24.9 ± 1%
CCCC(CCC)C(=O)O | OCI-Ly1 | – | – | 0.5 µM, 120 h | – | viability | 177%
C=C1C(=O)OC2C1CC1OC2C(C)CCC/C(C)=C\CCC1(C)O (stereo not drawn) | iPSC-derived cardiomyocytes | concentration-response fit | – | concentration not given | relative to: vehicle | fitted top MyBP-C level | 66%
[Cl-].[Cl-].[Ru+2].c1cnc2c(c1)ccc1cccnc12.c1cnc2c(c1)ccc1cccnc12.c1csc(-c2ccc(-c3ccc(-c4ccc(-c5nc6c7cccnc7c7ncccc7c6[nH]5)s4)s3)s2)c1 | SK-MEL-28 | – | – | normoxia, with: red light 633 nm, 100 J/cm2 | – | phototherapeutic index | 5
O=C(/C=C/C=C/C=C/C1CCCCC1)NC1=C[C@@](O)(/C=C/C=C/C=C/C(=O)NC2=C(O)CCC2=O)[C@@H]2O[C@@H]2C1=O | snu61 | cell growth, inhibitor, CellTiter-Glo luminescence | – | 78 h | relative to: day 0 cell count | GI50 | 18.7 µM
O=C1CCc2c(ccc3ccccc23)O1 | OCI-Ly1 | – | – | 0.1 µM, 120 h | – | viability | 183%
COc1cnc2cccc(N3CCc4c(cc(Cn5ccnc5C)cc4-c4cn(C)nc4C(F)(F)F)C3=O)c2c1 | Lu-65 | cell growth, inhibitor | – | 120 h | – | EC50 | 0.927 µM
COc1cc2ncnc(Nc3ccc(Oc4ccccc4)cc3C)c2cc1OC | LoVo (KRAS G13D) | resazurin | – | 0.3 µM, 72 h, with: trametinib 0 nM | – | viability | 99.5%
O=C(CCCCCN1C(=O)c2cccc3cccc(c23)C1=O)NO | OCI-Ly1 | – | – | 0.5 µM, 120 h | – | viability | 70.5%
C=C1C(=O)O[C@H]2[C@H]1[C@H](OC(=O)/C(C)=C\C)CC(=C)[C@@H]1[C@H](O)[C@H]3O[C@@]3(C)[C@@]12O | iPSC-derived cardiomyocytes | concentration-response fit | – | concentration not given | relative to: vehicle | fitted top MyBP-C level | 85%
Cc1cccc(-c2[nH]c(CNc3ccccc3F)nc2-c2ccc3ncnn3c2)n1 | pomalidomide-resistant MM1.S cells | XTT | – | 0.75 µM | higher = more viable cells | XTT absorbance | 3.8 E-1 and 6.2 E-1 and 3.9 E-1
CC(=O)c1nn(-c2ccc(Cl)cc2)/c(=N/N=C(\C)c2ccc(NC(=O)c3ccc(C)cc3)cc2)s1 | HepG2 | – | – | 5 µM | – | toxicity | 96.9%

Repeated from above:
Structure (SMILES) | cell line | test | system | conditions | scale | endpoint | value
Cc1cc(Nc2ncc(Cl)c(Nc3ccccc3S(=O)(=O)C(C)C)n2)c(OC(C)C)cc1C1CCNCC1 | CLB-BAR | phosphoproteomics LC-MS/MS, item: SOS1 phosphorylation | – | 200 nM, 60 min | relative to: untreated | log2 fold change | -3.08
CC[C@H](C)n1cc(C)c2c(C(=O)NCc3c(C)cc(C)[nH]c3=O)cc(-c3ccc(N4CCNCC4)nc3)cc21 | OCI-Ly1 | – | – | 0.5 µM, 120 h | – | viability | 152%
N#C/C(=C\c1ccc(-c2cc(Cl)ccc2Cl)o1)C(=O)Nc1cccc2ncccc12 | OCI-Ly1 | – | – | 0.5 µM, 120 h | – | viability | 96.3%
CCCCc1oc2ccc(NS(C)(=O)=O)cc2c1C(=O)c1ccc(OCCCN(CCCC)CCCC)cc1 | human embryonic stem cell aggregates | mRNA level, microarray, item: FGD4 | – | 0.5 µM, 120 h | relative to: untreated, up-regulated | fold change | 1.8 fold
[Cl-].[Cl-].[Ru+2].c1cnc2c(c1)ccc1cccnc12.c1cnc2c(c1)ccc1cccnc12.c1csc(-c2ccc(-c3ccc(-c4ccc(-c5nc6c7cccnc7c7ncccc7c6[nH]5)s4)s3)s2)c1 | SK-MEL-28 | – | – | normoxia, with: red light 633 nm, 100 J/cm2 | – | phototherapeutic index | 5
COc1ccc(NC(=S)N/N=C/c2cccc3cc4ccccc4nc23)cc1 | HeLa | PI flow cytometry | – | IC12.5, 48 h, with: N-acetylcysteine | – | S phase cells | 24.9 ± 1%
C=C1C(=O)O[C@H]2[C@H]1[C@H](OC(=O)/C(C)=C\C)CC(=C)[C@@H]1[C@H](O)[C@H]3O[C@@]3(C)[C@@]12O | iPSC-derived cardiomyocytes | concentration-response fit | – | concentration not given | relative to: vehicle | fitted top MyBP-C level | 85%
